Experimental data pooled from the literature.
± marks the error that the study gave.

CC1=CC(=O)C[C@@H]2[C@@H](O)C[C@H]3[C@@H]4CC[C@H](O)[C@@]4(C)CC[C@@H]3[C@@]12C — inhibition (PMA-differentiated THP-1; TNF-α production, ELISA; concentration not given, 4 h, with: LPS 50 ng/mL): 53.7 ± 1.4%
Cc1cccc(C)c1N1Cc2cnc(Nc3ccc(N4CCN(C)CC4)cc3)nc2N(C23CC4CC(CC(C4)C2)C3)C1=O — MMP secretion and expression (normal human fibroblasts; concentration not given, with: UV-A): inhibited
C/C1=C\CC[C@@]2(C)O[C@H]2[C@H]2OC(=O)C(C)[C@@H]2CC1 (stereo partly drawn) — IC50 (GBM6; cell growth or viability, resazurin): > 500 µM
N=C(N)NCCCCCCN1CCC23c4c5ccc(O)c4OC2c2nc4ccccc4cc2CC3(O)C1C5 (stereo not drawn) — holding current change (rat VTA neurons; ion current; 10 µM): ~0 pA
Cc1[nH]c2cc(Cl)cc(Cl)c2c1CCN — IC50 (NCI-H441; cell growth or viability, ATP luminescence; 72 h): 37 µM
O=C(O)CC[C@H](NC(=O)N[C@@H](CCCCNC(=O)[C@H](Cc1ccc2ccccc2c1)NC(=O)[C@H]1CC[C@H](CNC(=O)CN2CCN(CC(=O)O)CCN(C(CCC(=O)NCCC[P+](c3ccccc3)(c3ccccc3)c3ccccc3)C(=O)O)CCN(CC(=O)O)CC2)CC1)C(=O)O)C(=O)O (stereo partly drawn) [terbium-161 labelled] — total cellular uptake (PC-3 PIP (PSMA+); concentration not given, internalized plus surface-bound): 91.1%
CC1=CC(=O)C=C2CC[C@@H]3[C@H](CC[C@]4(C)C(=O)CC[C@@H]34)[C@@]12C — inhibition (PMA-differentiated THP-1; TNF-α production, ELISA; concentration not given, 4 h, with: LPS 50 ng/mL): 71 ± 7.2%
O=C(O)CC[C@H](NC(=O)N[C@@H](CCCCNC(=O)[C@H](Cc1ccc2ccccc2c1)NC(=O)[C@H]1CC[C@H](CNC(=O)CNC(=O)CNC(=O)CNC(=O)CN2CCN(CC(=O)O)CCN(C(CCC(=O)NCCC[P+](c3ccccc3)(c3ccccc3)c3ccccc3)C(=O)O)CCN(CC(=O)O)CC2)CC1)C(=O)O)C(=O)O (stereo partly drawn) [terbium-161 labelled] — total cellular uptake (PC-3 PIP (PSMA+); concentration not given, internalized plus surface-bound): 64.5%
Cc1[nH]c(=O)c(CNC(=O)c2ccc(C(F)(F)F)cc2)c2c1CCCC2 — selectivity index (Vero; reference: IC50 Vero over MIC M. tuberculosis): > 20
